# Assay results gathered from unrelated publications.
# A part holds a random share of what one study measured. Changes are numbered by the printed parent chain.

# Series 1 — method: protein-binding microarray; form: double-stranded DNA, one strand shown; matrix: in vitro; concentration: 250 nM; notes: 60-bp whole probe; added: salmon DNA 0.4 mg/ml; reference: random background probes; direction: higher = stronger binding; all sequences stand within: GCCTAGCAC … GTCTTGATTCGCTTGACGCTGCTG
# Target: Interferon regulatory factor 7, full length, phosphomimetic (IRF7, Homo sapiens, UniProt Q92985, residues 1-503, S101K/S471D/S472D/S475D/S476D/S477D/S483D/S484D/S487D)
# Residues (chain): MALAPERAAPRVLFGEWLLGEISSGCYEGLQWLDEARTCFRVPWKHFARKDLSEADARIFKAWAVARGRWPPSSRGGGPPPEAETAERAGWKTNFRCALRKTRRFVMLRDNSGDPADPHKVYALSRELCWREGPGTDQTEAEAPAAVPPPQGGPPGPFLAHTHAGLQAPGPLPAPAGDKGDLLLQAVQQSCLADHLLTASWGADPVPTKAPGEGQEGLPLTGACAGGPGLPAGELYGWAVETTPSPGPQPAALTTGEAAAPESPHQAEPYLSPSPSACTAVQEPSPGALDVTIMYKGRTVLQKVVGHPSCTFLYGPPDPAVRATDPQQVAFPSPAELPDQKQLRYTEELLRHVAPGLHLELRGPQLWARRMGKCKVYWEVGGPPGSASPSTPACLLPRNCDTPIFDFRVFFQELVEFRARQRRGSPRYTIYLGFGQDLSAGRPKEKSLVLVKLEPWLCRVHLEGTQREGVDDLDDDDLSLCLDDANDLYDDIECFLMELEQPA
Strand,log fluorescence [z-score]
TTAGAACTGGGGTATCGATCAGTGCTA,-0.215
TCATGTATATACTATATGACTGTGCTA,0.26
GACGGTTCCCTCTTCCTGACGTGCTAG,1.02
ATTTATTTACTCTCTACATGGGTGCTA,0.795
GACGAACTGAGTTTCAAGACGTGCTAG,0.0502
TCATAATTCCTGCCTGAGACTGTGCTA,0.229
CAGAATCTCTCATGTTACATTGTGCTA,0.178
TTAGGTTTCGGTTTCGCTTAGTGCTAG,14.7
TTAGGTATCGGTCTCGGTGAGTGCTAG,0.875
TCTCCTCCAGGTTCTCTGACAGTGCTA,0.166
TTGCTTTCCTTCTTGAACTCGTGCTAG,1.68
TTAGGTTTCGACTATCGGTCAGTGCTA,5.26

# Series 2 — target: CCND2, cyclin fold, Cln2 fusion (human); method: yeast growth competition, sequencing; matrix: yeast; notes: strong parent motif; reference: not given; direction: higher = stronger binding
# Parent: INSM1 docking peptide (human); PKAIRKLHFEDEV
Substitution,normalised enrichment score
PKAIRKLDFEDEV [H8D],3.32
PKAIRKLHFEAEV [D11A],1.8
PKAIRKRHFEDEV [L7R],0.263
PKGIRKLHFEDEV [A3G],0.68
PKFIRKLHFEDEV [A3F],-0.0882
PKATRKLHFEDEV [I4T],0.761
PKAIRKLHFEDSV [E12S],1.87
PKNIRKLHFEDEV [A3N],0.0592
PKAIRDLHFEDEV [K6D],0.312
PKAIRKLHFEDPV [E12P],2.42
PKAIRKLEFEDEV [H8E],2.36
PKAIRKLHAEDEV [F9A],-0.192
PKASRKLHFEDEV [I4S],1.37
PKAVRKLHFEDEV [I4V],1.36

# Series 3 — method: universal PBM; form: double-stranded DNA, one strand shown; matrix: in vitro; concentration: not given; direction: higher = stronger binding
# Target: Sal-like protein 4, full length isoform B (SALL4, Homo sapiens, UniProt Q9UJQ4-2, residues 1-616)
# Notes: 8-mer, flanks averaged, mean of replicates
# Target sequence (chain): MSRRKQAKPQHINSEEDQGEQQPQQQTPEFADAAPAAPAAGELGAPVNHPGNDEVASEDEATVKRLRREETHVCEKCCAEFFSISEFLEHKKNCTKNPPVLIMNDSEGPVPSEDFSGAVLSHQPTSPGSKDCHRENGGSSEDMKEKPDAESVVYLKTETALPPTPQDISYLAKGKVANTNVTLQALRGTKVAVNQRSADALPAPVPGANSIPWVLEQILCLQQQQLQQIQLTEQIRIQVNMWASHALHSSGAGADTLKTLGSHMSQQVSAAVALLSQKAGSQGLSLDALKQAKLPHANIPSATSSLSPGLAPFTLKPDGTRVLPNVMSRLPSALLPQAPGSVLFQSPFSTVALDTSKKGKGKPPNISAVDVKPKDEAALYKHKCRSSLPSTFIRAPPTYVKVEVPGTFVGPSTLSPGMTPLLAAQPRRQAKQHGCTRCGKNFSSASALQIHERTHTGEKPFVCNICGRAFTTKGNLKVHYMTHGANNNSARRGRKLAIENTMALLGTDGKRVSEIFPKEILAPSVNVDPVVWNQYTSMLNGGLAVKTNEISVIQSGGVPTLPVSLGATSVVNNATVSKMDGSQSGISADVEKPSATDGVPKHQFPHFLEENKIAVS
Strand,E-score
GCGTCGAA,-0.101
ATTTGACG,0.156
ACTTAGTG,0.121
TAGTCGGA,-0.117
CAGCATGC,-0.105
CATGGTAG,-0.102
CTCACGGC,-0.264
GTAACACA,0.175
CTTGGCGA,-0.301
CTTTGGAA,0.135
GATAAACC,0.0442
CGTAGATA,0.106
AAAATCGA,0.0237
ATAGACGC,0.208
CTCCAGGA,-0.17
AAAGTTAC,0.106
CGTCGAAG,-0.105
TTGTCAAA,0.219
CATAAGAA,0.307
ACGAAGTG,0.0265
GGGTTGGA,-0.149
CCGATTAG,-0.119
AGAAGACG,0.0513
CCCAAGCG,-0.185
CGGGTGAC,-0.288

# Series 4 — method: RNA Bind-n-Seq; form: RNA; matrix: in vitro; concentration: 1 µM; notes: whole 134-nt RNA, ends assumed; added: 150 mM KCl; reference: input library; direction: higher = stronger binding
# Target: Ras GTPase-activating protein-binding protein 1, RRM domain (G3BP1, Homo sapiens, UniProt Q13283)
# Chain of UniProt Q13283 (whole entry, looked up): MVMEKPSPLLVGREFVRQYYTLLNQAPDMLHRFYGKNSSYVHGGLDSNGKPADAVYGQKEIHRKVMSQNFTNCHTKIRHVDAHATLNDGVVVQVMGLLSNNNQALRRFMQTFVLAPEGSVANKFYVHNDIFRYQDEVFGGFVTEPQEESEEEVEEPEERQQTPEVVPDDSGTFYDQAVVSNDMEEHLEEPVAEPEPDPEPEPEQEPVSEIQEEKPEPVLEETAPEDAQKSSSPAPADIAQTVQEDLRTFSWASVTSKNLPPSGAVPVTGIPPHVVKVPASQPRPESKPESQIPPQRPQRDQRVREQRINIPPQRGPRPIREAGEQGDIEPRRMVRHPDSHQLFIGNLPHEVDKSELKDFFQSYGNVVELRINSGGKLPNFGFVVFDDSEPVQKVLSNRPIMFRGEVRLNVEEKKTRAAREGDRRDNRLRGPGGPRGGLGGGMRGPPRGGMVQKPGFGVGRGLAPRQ
# All sequences stand within: GGGAGUUCUACAGUCCGACGAUC … UGGAAUUCUCGGGUGUCAAGG
Strand,log2 enrichment
CCUCAAGUCCUGUGCUACACAUCGUAUGUACCGAAUCGGGGCGGGGCGGCGGAAAGUAUUAUGUUACGCCGUUCGGAUCUGCACUUCCAG,-0.342
UCCUGUGCUACACAUCGUAUGUACCGAAUCGGGGUUUUUGGGGUUUUUGGGGUUUUUGGGAAAGUAUUAUGUUACGCCGUUCGGAUCUGC,-0.0333
AAGUCCUGUGCUACACAUCGUAUGUACCGAAUCGGGCCCCGGGCCCCGGCCCCGGGAAAGUAUUAUGUUACGCCGUUCGGAUCUGCACUU,-1.04
UCCUGUGCUACACAUCGUAUGUACCGAAUCGGGAAAAAAAGGGAAAAAGGGAAAAAGGGAAAGUAUUAUGUUACGCCGUUCGGAUCUGCA,0.0804
UCCUGUGCUACACAUCGUAUGUACCGAAUCAAAUUUUUUUAAAUUUAAACCCCCCCAAAAAAGUAUUAUGUUACGCCGUUCGGAUCUGCA,-0.935
AAGUCCUGUGCUACACAUCGUAUGUACCGAAUCGGGGUUUGGGGUUUGGGUUUGGGAAAGUAUUAUGUUACGCCGUUCGGAUCUGCACUU,0.37
ACCAUGCAGGUGGGCAUCUUUGGGAAGUGGGGCAAGGGGGGGAUAGGGAGGGGGGUAACACUUUGGGAACGGGUGGUCCCAGGUCGUUUC,0.775
AAGUCCUGUGCUACACAUCGUAUGUACCGAAUCGGGGCCCGGGCCCGGGCCCGGGGAAAGUAUUAUGUUACGCCGUUCGGAUCUGCACUU,-0.646
UGGGAGGUGGAUUUUGUUUAUUUUUUUAGCUCAUUUCCAGGGGUGGGAAUUUUUCUUUAAUAUGUGUCAUGAAUAAAGUUGUUUUUGAAA,1.54

# Series 5 — method: DHFR PCA, deep sequencing; matrix: yeast; added: (+)-ABA 58 µM; reference: wild-type fitted maximum; direction: higher = stronger binding
# Target: ABI1, truncated, D143A, DHFR fusion (Arabidopsis thaliana)
# Notes: methotrexate growth selection, single substitutions
# Parent: PYL1, truncated, DHFR fusion (Arabidopsis thaliana); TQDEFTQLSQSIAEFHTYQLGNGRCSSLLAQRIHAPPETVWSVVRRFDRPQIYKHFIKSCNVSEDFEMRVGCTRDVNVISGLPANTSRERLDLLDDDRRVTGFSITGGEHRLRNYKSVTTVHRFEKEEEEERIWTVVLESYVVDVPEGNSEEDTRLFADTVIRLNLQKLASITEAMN
Substitution,relative binding score [%]
L164H,83.8
G102H,-7.79
P83E,39.4
T106Q,83.6
V78G,1.06
A158W,-1.04
V161Q,10.6
M176I,85.5
D159Q,46.5
T160E,17.6
K54V,0.476
V78E,7.89
Y115F,88.3

# Repeated from above (series 1):
Strand,log fluorescence [z-score]
CAGAATCTCTCATGTTACATTGTGCTA,0.178
TTAGGTTTCGACTATCGGTCAGTGCTA,5.26
TCTCCTCCAGGTTCTCTGACAGTGCTA,0.166
TTAGGTTTCGGTTTCGCTTAGTGCTAG,14.7
